# Measurements pooled from the literature.
# Protocols differ between the studies behind these lines. Numbers after ± are the reported error.
# U2AF2: U2AF2 148-342 (Homo sapiens, UniProt P26368)
# Chain of UniProt P26368 (whole entry, looked up): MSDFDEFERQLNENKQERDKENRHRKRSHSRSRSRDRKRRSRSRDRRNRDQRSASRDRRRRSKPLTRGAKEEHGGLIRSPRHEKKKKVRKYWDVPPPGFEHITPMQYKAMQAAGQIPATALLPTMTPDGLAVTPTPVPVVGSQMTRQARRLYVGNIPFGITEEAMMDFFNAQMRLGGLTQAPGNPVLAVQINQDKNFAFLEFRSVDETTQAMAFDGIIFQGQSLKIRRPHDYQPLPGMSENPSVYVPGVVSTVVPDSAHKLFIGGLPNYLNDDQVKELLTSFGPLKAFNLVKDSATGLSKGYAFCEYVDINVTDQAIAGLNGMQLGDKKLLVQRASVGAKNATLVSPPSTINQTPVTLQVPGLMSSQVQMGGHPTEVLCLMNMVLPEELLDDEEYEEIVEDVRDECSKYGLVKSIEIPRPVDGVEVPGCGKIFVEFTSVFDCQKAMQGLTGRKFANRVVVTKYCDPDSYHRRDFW
# B1: aspC A106G/A17N/A218G/A278L/A281T/A8Q/D18E/F210I/F212I/F350Y/G15S/G249S/I187A/I279A/I29V/I33V/I341V/I5L/I68L/I71L/L46M/M321L/M380L/N285S/N30D/N64T/S129T/S135A/S273G/S351L/T100S/V125I/V136I/V375I/Y244C (Escherichia coli, UniProt P00509); chain MFENLTAQPADPILSLNELFRADERPGKVDLGVGVYKDETGKTPVMTSVKKAEQYLLENETTKTYLGLDGLPEFGRCTQELLFGKGSALINDKRARTAQSPGGTGGLRVAADFLAKNTSVKRVWISNPTWPNHKAIFNSAGLEVREYAYYDAENHTLDFDALINSLNEAQAGDVVLFHGCCHNPTGADPTLEQWQTLAQLSVEKGWLPLIDIAYQGFGRGLEEDAEGLRAFAAMHKELIVASSCSKNFSLYNERVGACTLVAADSETVDRAFGQMKALARTNYSSPPAHGASVVATILSNDALRAIWEQELTDMRQRIQRLRQLFVNTLQEKGANRDFSFVIKQNGMFSYLGLTKEQVLRLREEFGVYAVASGRINVAGLTPDNMAPLCEAIVAVL
# B2: human ribophorin I; sequence looked up; chain ASSEAPPLINEDVKRTVDLSSHLAKVTAEVVLAHLGGGSTSRATSFLLALEPELEARLAHLGVQVKGEDEEENNLEVRETKIKGKSGRFFTVKLPVALDPGAKISVIVETVYTHVLHPYPTQITQSEKQFVVFEGNHYFYSPYPTKTQTMRVKLASRNVESYTKLGNPTRSEDLLDYGPFRDVPAYSQDTFKVHYENNSPFLTITSMTRVIEVSHWGNIAVEENVDLKHTGAVLKGPFSRYDYQRQPDSGISSIRSFKTILPAAAQDVYYRDEIGNVSTSHLLILDDSVEMEIRPRFPLFGGWKTHYIVGYNLPSYEYLYNLGDQYALKMRFVDHVFDEQVIDSLTVKIILPEGAKNIEIDSPYEISRAPDELHYTYLDTFGRPVIVAYKKNLVEQHIQDIVVHYTFNKVLMLQEPLLVVAAFYILFFTVIIYVRLDFSITKDPAAEARMKVACITEQVLTLVNKRIGLYRHFDETVNRYKQSRDISTLNSGKKSLETEHKALTSEIALLQSRLKTEGSDLCDRVSEMQKLDAQVKELVLKSAVEAERLVAGKLKKDTYIENEKLISGKRQELVTKIDHILDAL
# B3: enzyme S252E/S281E/S285E/S287E (Schizosaccharomyces pombe, UniProt P78804); chain MSTPYEPEFQQAYKEIVGSIESSKLFEVHPELKRVLPIISIPERVLEFRVTWEDDKGNCRVNTGYRVQFNSALGPYKGGLRFHPSVNLSILKFLGFEQIFKNALTGLPMGGGKGGSDFDPKGKSDNEIRRFSQAFMRQLFRYIGPQTDVPAGDIGVTGFVVMHMFGEYKRLRNEYSGVVTGKHMLTGGSNIRPEATGYGVVYYVKHMIEHRTKGAETLKGKRVAISGSGNVAQYAALKCIQEGAIVKSISDEKGVLIAKTAEGLVPEEIHEIMALKEKRAEIADEAELCKKHHYIAGARPWTNVGEIDIALPCATQNEVSGEEAAALIKQGCRYVAEGSNMGSSAEAVEVFEKSRASGEGCWLAPGKAANAGGVAVSGLEMAQNAQFSTWTHAEVDAKLAGIMQNIFEQSTDVASKYCDSGSNNIPSLVDGANIAGFLKVATAMQAVGDWW
# B4: SCO6712 V290N (Streptomyces coelicolor, UniProt Q9XAL8); chain AKGITARTAPAGGEVRHLKMYAEKLADGQMGYGFEKGKASVPGPLIEVNEGDTLHIEFTNTMDVRASLHVHGLDYEISSDGTAMNKSDVEPGGTRTYTWRTHKPGRRDDGTWRPGSAGYWHYHDHVVGTEHGTGGIRNGLYGPVIVRRKGDVLPDATHTIVFNDMTINNRKPHTGPDFEATVGDRVEIVMITHGEYYHTFHMHGHRWADNRTGILTGPDDPSRVIDNKITGPADSFGFQIIAGEGVGAGAWMYHCHNQSHSDMGMVGLFLVKKPDGTIPGYEPHEHGGATAKSGESGEPTGGAAAHEHEH
# B5: enzyme (Kluyveromyces lactis, UniProt Q6CSZ6); chain MSSLDINEQRALIKSAHRYISEKLEDHFSSEFLPKALVICGSGLSGISTKIADEPKPLILSYSTIPGFKVSTVPGHSGELIFGYMNGAPVVLMNGRLHSYEGHSLAETVHPIRALHLLGSINVLIVTNAAGGINASFKAGDLMCVYDHINFPGLCGFHPLRGANFDEFGPRFLATSDAYDLELRKLLFSKKKELNIERKIHEGTYSYVHGPTFESRAESRFLRLAGTDAVGMSTVPEVVTARHCGWRVLALSLITNECVVDPPASAHDENPVPIQEGKATHEEVLENSAKASKDVQELIFSVVAEI
# B6: spt (Sphingomonas paucimobilis, UniProt Q93UV0); chain TEAAAQPHALPADAPDIAPERDLLSKFDGLIAERQKLLDSGVTDPFAIVMEQVKSPTEAVIRGKDTILLGTYNYMGMTFDPDVIAAGKEALEKFGSGTNGSRMLNGTFHDHMEVEQALRDFYGTTGAIVFSTGYMANLGIISTLAGKGEYVILDADSHASIYDGCQQGNAEIVRFRHNSVEDLDKRLGRLPKEPAKLVVLEGVYSMLGDIAPLKEMVAVAKKHGAMVLVDEAHSMGFFGPNGRGVYEAQGLEGQIDFVVGTFSKSVGTVGGFVVSNHPKFEAVRLACRPYIFTASLPPSVVATATTSIRKLMTAHEKRERLWSNARALHGGLKAMGFRLGTETCDSAIVAVMLEDQEQAAMMWQALLDGGLYVNMARPPATPAGTFLLRCSICAEHTPAQIQTVLGMFQAAGRAVGVIG
# Chain of UniProt A0A348FUE1 (whole entry, looked up): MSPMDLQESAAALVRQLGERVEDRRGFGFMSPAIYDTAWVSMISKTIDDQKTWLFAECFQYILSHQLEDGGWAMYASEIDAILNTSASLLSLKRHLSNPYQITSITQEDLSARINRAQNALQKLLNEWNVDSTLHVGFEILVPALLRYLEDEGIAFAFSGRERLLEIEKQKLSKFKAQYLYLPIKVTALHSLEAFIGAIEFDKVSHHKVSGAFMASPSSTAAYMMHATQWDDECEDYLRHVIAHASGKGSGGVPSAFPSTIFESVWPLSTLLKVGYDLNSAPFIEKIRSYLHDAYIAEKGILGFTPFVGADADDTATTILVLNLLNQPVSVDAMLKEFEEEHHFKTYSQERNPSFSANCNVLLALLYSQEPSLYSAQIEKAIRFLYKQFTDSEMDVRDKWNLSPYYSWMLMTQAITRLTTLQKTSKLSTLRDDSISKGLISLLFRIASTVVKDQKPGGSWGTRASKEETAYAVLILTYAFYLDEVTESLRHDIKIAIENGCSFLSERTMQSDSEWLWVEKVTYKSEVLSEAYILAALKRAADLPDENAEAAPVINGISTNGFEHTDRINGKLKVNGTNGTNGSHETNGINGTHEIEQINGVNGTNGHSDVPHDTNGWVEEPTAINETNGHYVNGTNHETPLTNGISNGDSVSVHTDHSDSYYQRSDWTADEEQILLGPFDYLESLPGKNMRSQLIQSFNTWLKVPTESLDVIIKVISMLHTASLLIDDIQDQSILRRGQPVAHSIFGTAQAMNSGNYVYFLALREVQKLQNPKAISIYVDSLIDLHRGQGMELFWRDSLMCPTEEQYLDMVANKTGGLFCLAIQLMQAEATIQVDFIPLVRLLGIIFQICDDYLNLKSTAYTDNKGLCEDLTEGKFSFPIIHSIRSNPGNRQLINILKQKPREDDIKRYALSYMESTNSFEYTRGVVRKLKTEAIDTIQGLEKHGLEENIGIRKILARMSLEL
Molecule,tested on,test,test system,setting,scale,endpoint,value
B1,O=C(O)C(=O)Cc1ccccc1,steady-state kinetics,,"pH 7.5, 25 °C, added: PMP 20 µM, ammonium acetate 10 mM",,kcat/Km,340 M⁻¹ s⁻¹
GGUGUUGUA (ssRNA),U2AF2,sequencing of bound RNA,RNA,motif only,,Kd,3.62 µM
B2 (human ribophorin I),CYB5R4 knockout human cells,"PP4 interaction, 3xFLAG-PP4C IP-MS",,concentration not given,reference: CYB5R4 KO over parental,log2 fold change,-0.02
"enzyme (Caenorhabditis elegans, UniProt Q86D21)",C[C@@H](O)[C@H](N)C(=O)O,steady-state kinetics,,"pH 7.5, 37 °C, added: ATP",,kcat/Km,730 M⁻¹ s⁻¹
human alpha-enolase,PP6C (human),"co-immunoprecipitation, IP-MS",CYB5R4 knockout cells,concentration not given,reference: CYB5R4 knockout over parental,log2 fold change,1.36
B3 (enzyme S252E/S281E/S285E/S287E),NC(=O)c1ccc[n+]([C@@H]2O[C@H](COP(=O)(O)OP(=O)(O)OC[C@H]3O[C@@H](n4cnc5c(N)ncnc54)[C@H](OP(=O)(O)O)[C@@H]3O)[C@@H](O)[C@H]2O)c1,steady-state kinetics,,"pH 7, 30 °C, apparent",,kcat/Km,5000 ± 400 M⁻¹ s⁻¹
AUUUUUCUU (ssRNA),U2AF2,sequencing of bound RNA,RNA,motif only,,Kd,12.2 µM
B4 (SCO6712 V290N),CCn1c(=NN=c2sc3cc(S(=O)(=O)O)ccc3n2CC)sc2cc(S(=O)(=O)O)ccc21,steady-state kinetics,,"pH 7, 37 °C, NaCl 150 mM, added: O2 cosubstrate",,kcat/Km,1460 ± 80 M⁻¹ s⁻¹
B5 (enzyme),Nc1nc2c(ncn2[C@H]2C[C@H](O)[C@@H](CO)O2)c(=O)[nH]1,steady-state kinetics,,,,kcat/Km,37000 M⁻¹ s⁻¹
B6 (spt),CCCCCCCCCCCC(=O)SCCNC(=O)CCNC(=O)[C@H](O)C(C)(C)COP(=O)(O)OP(=O)(O)OC[C@H]1O[C@@H](n2cnc3c(N)ncnc32)[C@H](O)[C@@H]1OP(=O)(O)O,steady-state kinetics,,added: PLP,,kcat/Km,440 M⁻¹ s⁻¹
"enzyme (Talaromyces verruculosus, UniProt A0A348FUE1)",CC(C)=CCOP(=O)(O)OP(=O)(O)O,steady-state kinetics,,"pH 7.5, apparent, added: 150 µM IPP",,kcat/Km,550 ± 30 M⁻¹ s⁻¹
gdh N97F (Bacillus subtilis),NC(=O)c1ccc[n+]([C@@H]2O[C@H](COP(=O)(O)OP(=O)(O)OC[C@H]3O[C@@H](n4cnc5c(N)ncnc54)[C@H](O)[C@@H]3O)[C@@H](O)[C@H]2O)c1,steady-state kinetics,,"pH 8, 55 °C",,kcat/Km,42300 ± 1830 M⁻¹ s⁻¹

# Excerpt of the above:
Molecule,tested on,test,test system,setting,scale,endpoint,value
AUUUUUCUU (ssRNA),U2AF2,sequencing of bound RNA,RNA,motif only,,Kd,12.2 µM
"enzyme (Talaromyces verruculosus, UniProt A0A348FUE1)",CC(C)=CCOP(=O)(O)OP(=O)(O)O,steady-state kinetics,,"pH 7.5, apparent, added: 150 µM IPP",,kcat/Km,550 ± 30 M⁻¹ s⁻¹
